Assay results gathered from unrelated publications.
Lines come from different studies, so protocols differ. ± gives the spread as reported.

Structure (SMILES) | assay | system | setting | scale | endpoint | value
CN(C)C/C=C/C(=O)Nc1cc2c(Nc3ccc(F)c(Cl)c3)ncnc2cc1O[C@H]1CCOC1 |  | human, plasma | oral, 40 mg once daily, day 27, geometric mean |  | Vz/F at steady state | 3150 L
COC(=O)c1ccc(O)cc1 | mitochondrial swelling | BALB/cByJ female mouse liver mitochondria | 30 min, with: succinate + rotenone | relative to: CaCl2 maximal swelling | EC20 | > 200 µM
CCCCC1(CCCC)CN(c2ccccc2)c2cc(SC)c(OCC(=O)N[C@@H](C(=O)NCC(=O)O)c3ccccc3)cc2S(=O)(=O)C1 |  | human, plasma | oral, 20 mg once daily, day 14, geometric mean |  | AUC(0-t) | 3.45 ng·h/mL
CNC(=O)c1ccc(-c2cnc3ncc(Cc4ccc5ncccc5c4)n3n2)cc1F |  | human, moderate hepatic impairment (Child-Pugh B), plasma | oral, 200 mg single dose |  | Vz/F (mean) | 340 L
Cc1cc2nc3c(=O)[nH]c(=O)nc-3n(C[C@H](O)[C@H](O)[C@H](O)CO)c2cc1C | cytochrome c release, ELISA | BALB/cByJ female mouse liver mitochondria | 30 min | relative to: alamethicin maximal release | EC20 | > 400 µM
CCC(C)n1ncn(-c2ccc(N3CCN(c4ccc(OCC5COC(Cn6cncn6)(c6ccc(Cl)cc6Cl)O5)cc4)CC3)cc2)c1=O (stereo not drawn) |  | human male, plasma | oral, 200 mg, day 3, geometric mean |  | AUC(0-24 h) | 4700 ng·h/mL
S=C(NCCCc1c[nH]cn1)NCCCN(Cc1ccc(Cl)c(Cl)c1)c1ccc(Br)cn1 |  | male C57BL/6 mouse, plasma | intraperitoneal, 30 mg/kg, 4.98 min |  | concentration | 1680 ng/mL
CCCCNC(=O)CCC(C(=O)[O-])N1CCN(CC(=O)[O-])CCN(CC(=O)[O-])CCN(CC(=O)[O-])CC1.[67Ga+3] (stereo not drawn) | RP-TLC | murine plasma | 24 h, 37 °C, 5% CO2 |  | intact radiolabelled complex | 82.2 ± 0.2%
Cc1nc2cccc(OCC(C)(C)C(=O)NC(C)C)c2c(N)c1C(=O)O |  | Sprague-Dawley rat, female, plasma | oral, 100 mg/kg, day 1 |  | Tmax | 15 min
COc1cccc(-c2ccc(NC(=O)C3=C(C(=O)O)CCC3)c(F)c2)c1 |  | human, male, plasma | oral, 50 mg once daily, day 13, geometric mean |  | AUC(0-24h) | 166000 ng·h/mL
O=c1[nH]c(=O)c(Cc2cccc(C(F)(F)F)c2)c([C@H]2CC[C@H](c3ccccc3)CC2)[nH]1 |  | human, plasma | oral, 150 mg once daily, day 7, geometric mean |  | Cmax | 142 ng/mL
CNCc1ccc(-c2[nH]c3cc(F)cc4c3c2CCNC4=O)cc1 |  | human patients, plasma | oral, 160 mg once daily, day 15, 24 h, steady state, arithmetic mean |  | AUC(0-t) | 4110 ng·h/mL
O=C(O)c1cccc(CN2CN(C3CCCCC3)C3(CCN(CCCC(=O)c4ccccc4)CC3)C2=O)c1 |  | Sprague Dawley rat female | 100 mg/kg/day, 4 to 8 min of assessment |  | rearing counts | 3 counts
CCCC[C@H](NC(C)=O)C(=O)N[C@H]1CCC(=O)NC[C@@H](C(=O)N[C@@H](Cc2c[nH]c3ccccc23)C(N)=O)NC(=O)[C@H](CCCNC(=N)N)NC(=O)[C@@H](Cc2ccccc2)NC(=O)[C@H](Cc2c[nH]cn2)NC1=O |  | beagle dog, male, plasma | subcutaneous, 8.0 mg/kg daily, day 1 |  | Tmax | 45 min
Cn1c(=O)c2c(ncn2C)n(C)c1=O | cytochrome c release, ELISA | BALB/cByJ female mouse liver mitochondria | 30 min | relative to: alamethicin maximal release | EC20 | > 400 µM

Some of these lines once more:
Structure (SMILES) | assay | system | setting | scale | endpoint | value
CCCCC1(CCCC)CN(c2ccccc2)c2cc(SC)c(OCC(=O)N[C@@H](C(=O)NCC(=O)O)c3ccccc3)cc2S(=O)(=O)C1 |  | human, plasma | oral, 20 mg once daily, day 14, geometric mean |  | AUC(0-t) | 3.45 ng·h/mL
S=C(NCCCc1c[nH]cn1)NCCCN(Cc1ccc(Cl)c(Cl)c1)c1ccc(Br)cn1 |  | male C57BL/6 mouse, plasma | intraperitoneal, 30 mg/kg, 4.98 min |  | concentration | 1680 ng/mL
